Assay results from different studies.
Numbered parts are unrelated; each lists some results of a single study.

Block 1
Target: RNA binding protein fox-1 homolog 2, RRM domain, GST-SBP tag (RBFOX2, Homo sapiens, UniProt O43251-10, residues 100-194)
Method: RNA Bind-n-Seq
Form: RNA
Sample: in vitro
Tested at: 365 nM
Setting: natural RNA segment, single round, ends assumed
Reference: no-protein control
Direction: higher = stronger binding
Residues (chain): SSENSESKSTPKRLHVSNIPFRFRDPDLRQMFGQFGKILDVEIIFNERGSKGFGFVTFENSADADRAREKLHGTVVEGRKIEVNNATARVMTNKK
| Sequence | RBNS enrichment (R) |
| --- | --- |
| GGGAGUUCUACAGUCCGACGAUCACAGAGGUUUCUCCUGGUUUUCCUUGUUUCUACCCAGAGAAUUUCCUACUCCCCUUUCCCUCCAAAUGUUAAGGGUUUUCUCCCAGAACAGUAAUGGGGCUAAAGGGGCAUGGAAUUCUCGGGUGCCAA | 0.228 |
| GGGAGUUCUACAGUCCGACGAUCUCAGGGUGUGGUAGCAAAUGCCUAUAAUCCCAGCAUUUAGGAGGCAGGGAUAGGAAUCUCAGGUUCAAGGCUGCCUACAAGUGUCUCAAAAAAGAAAGAACAAAAGAAAGUGGAAUUCUCGGGUGCCAA | 0.653 |
| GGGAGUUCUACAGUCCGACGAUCCGGUGACAUAUUGGACCAGAAGAGGCACUAGCCAUUUUAAGGAGAGGAAAGAGAAAACUCUGGGGUCAGGGAGAGACCCUACCCCCACCUAAUUAUCCAGCAUAUAUGUAUGGAAUUCUCGGGUGCCAA | 0.42 |
| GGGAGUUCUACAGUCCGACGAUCCGAUGGCCAGCUGUCUCCCUCCGUGGCAUCUGCUAUUCAAAGAAGAUGGAGUGAGAGGGGCGCCAGAGUUUCAUGGGGGCUUUACUCAUUCAUUUCAUUUAGGGACUCUGUGGAAUUCUCGGGUGCCAA | 0.335 |
| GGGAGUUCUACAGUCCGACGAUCUGCCCUCUACCACUAUAUGCCAAAAAUUGCUUCUCUAGUGCCAUUUUGAUAUUAUAUCUAGCUAUAAAUAAUACAUGACUAUCGUUUUCUAUUGAAUGUCAAAGACUUACUGGAAUUCUCGGGUGCCAA | 0.576 |
| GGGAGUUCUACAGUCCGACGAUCCUGUUGGGAUCAUUUGUGAAUACAUUCUUUGCUCCUCUUAAGUGCUUGUUUCCUAACCGUGCAGUGGUAGGUAUUAGUACACUGGGCACUUCCCCAGGGAUCUGGGGAAGUGGAAUUCUCGGGUGCCAA | 0.315 |
| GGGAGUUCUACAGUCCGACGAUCUAAGCUUGCGUAGAAUUGCAGGUCUCUGUACGGGCCAGUUUCUCUGCCUUCUUCCAGGAUCAGGGGUUAGGGUGCAAGAAGCCAUUUAGGGCAGCAAAACAAGUGACAUGUGGAAUUCUCGGGUGCCAA | 0.832 |
| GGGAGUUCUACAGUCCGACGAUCACAUUUUGUGACGAAUGGUGUGGCCUGAGGCCACUUGACAGACUGCUGCCUGGGCUUGCUCAGGUCCCCACUAAUAUUUUAAUGUGCCAAUGCCUGUGGAGAGUCUACAGUGGAAUUCUCGGGUGCCAA | 0.464 |
| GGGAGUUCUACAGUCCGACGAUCAAGUAAUGCUAAUUAGAAAUCAGUUGGACUUCAACAUUCUCAAGUACUUCCACAAAGCAUCCCUUGGUUUUAUUCCAGUUUGUUGCUUUACGUAUUUGUAAGUAUUAAACUGGAAUUCUCGGGUGCCAA | 0.47 |
| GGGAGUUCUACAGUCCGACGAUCUUAGUGCCACCAGACUAGACCUGUAUCAUUCAUGGUAUAAAUUUUACUCUUGCAACAUAACUACCAUCUCUCUCUUAAAACGAGAUCAGGUUAGCAAAUGAUGUAAAAGAUGGAAUUCUCGGGUGCCAA | 0.222 |
| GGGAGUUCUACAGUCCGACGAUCUCUUUCCUGCAGUGCUGUCCCCAACCCCGUGUAGCUCUGUUAUUACCAUAGGGGACUUGGUUUUGGACUCUGAUGAGGAAGAAAAUAACCAGAAGGAAGGGAAGGAGUUUUGGAAUUCUCGGGUGCCAA | 0.366 |
| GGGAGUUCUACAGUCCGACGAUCCCAUCAUUUGAUCAUAGCACUGUGAUUGCUUUUGAUGUGUGUCUCUAGUGGUGUGCUGUCUGUUGGCAUGCUUAAAGCACAUGUCCAUUAAAAUUCAUUUUGUUCCUUUUUGGAAUUCUCGGGUGCCAA | 0.964 |

Block 2
Target: Interferon regulatory factor 3, full length, phosphomimetic (IRF3, Homo sapiens, UniProt Q14653, residues 1-427, S386D/S396D/S398D/S402D/T404D/S405D)
Method: protein-binding microarray
Form: double-stranded DNA, one strand shown
Sample: in vitro
Tested at: 2540 nM top
Setting: 60-bp whole probe
Together with: salmon DNA 0.4 mg/ml
Reference: random background probes
Direction: higher = stronger binding
Shared flanks, not repeated: GCCTAGCAC … GTCTTGATTCGCTTGACGCTGCTG
Residues (chain): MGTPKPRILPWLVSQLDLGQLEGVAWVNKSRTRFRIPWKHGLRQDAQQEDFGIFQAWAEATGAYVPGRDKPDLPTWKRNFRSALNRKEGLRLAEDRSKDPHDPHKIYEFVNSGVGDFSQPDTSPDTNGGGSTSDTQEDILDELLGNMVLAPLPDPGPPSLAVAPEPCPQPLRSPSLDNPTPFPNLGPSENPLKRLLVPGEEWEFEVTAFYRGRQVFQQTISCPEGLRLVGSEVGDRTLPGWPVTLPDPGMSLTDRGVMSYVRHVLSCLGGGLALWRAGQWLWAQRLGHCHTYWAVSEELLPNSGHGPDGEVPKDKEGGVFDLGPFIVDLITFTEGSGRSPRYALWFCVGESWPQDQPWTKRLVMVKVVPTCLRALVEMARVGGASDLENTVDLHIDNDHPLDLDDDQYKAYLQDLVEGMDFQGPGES
| Sequence | fitted relative affinity |
| --- | --- |
| TTAGGTATCGGGTATCAGTTAGTGCTA | 1.71 z-score |
| TTAGGTCTCCGTATCCTTTAGTGCTAG | 2.45 z-score |
| GACGGACTGGGGTATCGAGACGTGCTA | -0.798 z-score |
| TTAGTACTGCTTTTCCTTTAGTGCTAG | 1.42 z-score |
| TTAGGACTGGGACTGAGTTAGTGCTAG | -0.944 z-score |
| TTCGGTTTCCTACTGCTTTAGTGCTAG | 6.41 z-score |
| GACGATATCAAACTGGAGACGTGCTAG | 0.122 z-score |
| TTAGACATCAGTATCGATTAGTGCTAG | 0.691 z-score |
| TGAGGTTTCGGTTTCGGTTAGTGCTAG | 11.7 z-score |
| TTAGGACGGGGTCTCGGTTAGTGCTAG | -0.704 z-score |
| TCATCTCTCCCATTCTGACTGTGCTAG | 2 z-score |
| TTAGGTTTCCTTATCCTTTTGTGCTAG | 7.59 z-score |
| GCCGGTATCCTTCTCCTGACGTGCTAG | 7.3 z-score |
| TTAGGTCTCCTTCTCTTTTAGTGCTAG | 4.04 z-score |
| GAAAAATCTGGAACTAACAGGTGCTAG | 0.0876 z-score |
| GACGATCTCAGACTGGAGCCGTGCTAG | 0.234 z-score |
| ACCTGTTCCCTCATCAGGCTGTGCTAG | 1.5 z-score |
| TAAGGTTTCGGTATCGGTTAGTGCTAG | 8.9 z-score |
| TTAGGACAGGACACTGGGTTAGTGCTA | -0.492 z-score |
| GACGGACTGGGGGATCGGGACGTGCTA | -0.561 z-score |
| GACGGTCTCGGTTTCGCGACGTGCTAG | 2.8 z-score |
| TTAGGTTCCGGTCTCGGTTAGTGCTAG | 4.51 z-score |
| GACTCTTCAGCACTCGGGTCGTGCTAG | -0.126 z-score |
| TTAGGACTGGGGCCTGGGTTAGTGCTA | -1.32 z-score |
| TCATTTTTTTCATTATTACTGTGCTAG | 1.5 z-score |

Block 3
Target: Sal-like protein 4, full length isoform B (SALL4, Homo sapiens, UniProt Q9UJQ4-2, residues 1-616)
Method: universal PBM
Form: double-stranded DNA, one strand shown
Sample: in vitro
Tested at: not given
Setting: 8-mer, flanks averaged, mean of replicates
Direction: higher = stronger binding
Construct (chain): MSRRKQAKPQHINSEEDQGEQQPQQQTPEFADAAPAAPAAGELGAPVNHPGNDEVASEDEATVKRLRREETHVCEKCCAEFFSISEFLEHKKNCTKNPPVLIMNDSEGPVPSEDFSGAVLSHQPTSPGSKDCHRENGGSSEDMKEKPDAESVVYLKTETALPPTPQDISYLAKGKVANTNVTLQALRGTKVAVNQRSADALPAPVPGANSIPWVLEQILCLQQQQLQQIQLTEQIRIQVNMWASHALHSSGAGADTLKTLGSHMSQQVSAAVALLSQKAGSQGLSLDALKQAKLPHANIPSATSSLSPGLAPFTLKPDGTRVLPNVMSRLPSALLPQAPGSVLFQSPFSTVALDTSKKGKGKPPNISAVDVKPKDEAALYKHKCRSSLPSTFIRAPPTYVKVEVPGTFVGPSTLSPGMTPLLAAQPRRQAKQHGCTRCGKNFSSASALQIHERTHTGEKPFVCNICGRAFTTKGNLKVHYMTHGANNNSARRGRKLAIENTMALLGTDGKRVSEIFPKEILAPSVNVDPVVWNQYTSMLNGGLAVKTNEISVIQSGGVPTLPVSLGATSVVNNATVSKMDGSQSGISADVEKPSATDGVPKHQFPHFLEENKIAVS
| Sequence | E-score |
| --- | --- |
| AGCCGCCC | -0.316 |
| GTAGATTA | 0.286 |
| GTTCCGTA | 0.0404 |
| CCTGAGAC | -0.231 |
| AATTTAGA | 0.242 |
| ATCATAAG | 0.349 |
| CATACGAG | 0.0385 |
| ATTTTTCG | 0.302 |
| GTGCGTCA | -0.147 |
| GAAGGTGA | -0.0577 |
| TAGGCGCA | -0.187 |
| AATTTAGT | 0.196 |
| ATGCCATA | 0.245 |
| CTCGTCTC | -0.128 |
| AACAATGG | 0.0726 |
| CCCCTGCG | -0.309 |
| AGTTCAGA | 0.00579 |
| GATGTTAC | 0.215 |
| CCGCACTC | -0.214 |
| AACAATCT | 0.206 |
| GGACTAAA | 0.0574 |

Block 4
Target: Histone acetyltransferase KAT6A, winged helix 1, GST fusion (KAT6A, Homo sapiens, UniProt Q92794, residues 1-85)
Method: protein binding microarray
Form: double-stranded DNA, one strand shown
Sample: in vitro
Tested at: not given
Setting: 8-mer, flanks averaged, mean of 2 arrays, mostly near background
Reference: not given
Direction: higher = stronger binding
Residues (chain): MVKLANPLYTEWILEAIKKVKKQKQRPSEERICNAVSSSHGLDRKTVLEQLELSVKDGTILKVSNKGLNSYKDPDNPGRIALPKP
| Sequence | E-score |
| --- | --- |
| AGTTTCGA | -0.128 |
| GCTAGCGA | 0.00918 |
| TACGGCGA | 0.416 |
| AACCTTTC | -0.163 |
| ACCAGAGA | -0.287 |
| TAGATCCA | -0.117 |
| CGAAAACA | 0.0432 |
| CGATTACA | -0.0228 |
| ATGTTGAA | -0.00899 |
| TATTAAGA | -0.0953 |
| GGATGTGA | -0.142 |
| GGTTGGGA | -0.135 |
| GGGGGACA | -0.0329 |
| AGCGCAAG | 0.166 |
| CTTGTCGC | 0.274 |
| CTTCCGAC | 0.107 |

Block 5
Target: Sox, HMG box (Pigoraptor chileana)
Method: Spec-seq
Form: double-stranded DNA, one strand shown
Sample: in vitro
Tested at: not given
Setting: whole probe, mean of replicates
Reference: not given
Direction: lower = stronger binding
Shared flanks, not repeated: GAGTCGTCTCGTCAGCAC … CCGTAGAGCACTCAGGTC
Residues (chain): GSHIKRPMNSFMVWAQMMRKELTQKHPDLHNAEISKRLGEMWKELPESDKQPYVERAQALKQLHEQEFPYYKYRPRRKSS
| Sequence | relative binding energy |
| --- | --- |
| CAGAGTT | 1.12 ln ratio |
| ATTGGTT | 0.0186 ln ratio |
| CCGTGTT | 0.321 ln ratio |
| CATAATG | -1.43 ln ratio |
| TTCAGTT | -0.125 ln ratio |
| CATCTCG | 0.534 ln ratio |
| CATTGAG | -0.48 ln ratio |
| CATTTGC | 0.657 ln ratio |
| CATTACC | 0.451 ln ratio |
| TGAGGTT | 0.832 ln ratio |
| GTCAGTT | 0.693 ln ratio |
| CATATAG | -0.28 ln ratio |
| AAGGGTT | -0.942 ln ratio |
| CATTGAA | -0.581 ln ratio |
| CATGATG | 0.31 ln ratio |

For quick reference, copied from above (block 4):
| Sequence | E-score |
| --- | --- |
| AGTTTCGA | -0.128 |
| AACCTTTC | -0.163 |
| CTTCCGAC | 0.107 |
| GCTAGCGA | 0.00918 |
| CTTGTCGC | 0.274 |
| GGTTGGGA | -0.135 |
| CGAAAACA | 0.0432 |
| TATTAAGA | -0.0953 |
| AGCGCAAG | 0.166 |
